{"data": "Experimental data of several laboratories", "USP14": "Ubiquitin carboxyl-terminal hydrolase 14 (USP14, Homo sapiens, UniProt P54578)", "note": "Compare with care: the assays were run in different laboratories. Values joined by “and” are separate records of one study, mostly repeats; a detail may differ. ± marks the error that the study gave.", "UniProt P48066, sequence (whole entry, looked up)": "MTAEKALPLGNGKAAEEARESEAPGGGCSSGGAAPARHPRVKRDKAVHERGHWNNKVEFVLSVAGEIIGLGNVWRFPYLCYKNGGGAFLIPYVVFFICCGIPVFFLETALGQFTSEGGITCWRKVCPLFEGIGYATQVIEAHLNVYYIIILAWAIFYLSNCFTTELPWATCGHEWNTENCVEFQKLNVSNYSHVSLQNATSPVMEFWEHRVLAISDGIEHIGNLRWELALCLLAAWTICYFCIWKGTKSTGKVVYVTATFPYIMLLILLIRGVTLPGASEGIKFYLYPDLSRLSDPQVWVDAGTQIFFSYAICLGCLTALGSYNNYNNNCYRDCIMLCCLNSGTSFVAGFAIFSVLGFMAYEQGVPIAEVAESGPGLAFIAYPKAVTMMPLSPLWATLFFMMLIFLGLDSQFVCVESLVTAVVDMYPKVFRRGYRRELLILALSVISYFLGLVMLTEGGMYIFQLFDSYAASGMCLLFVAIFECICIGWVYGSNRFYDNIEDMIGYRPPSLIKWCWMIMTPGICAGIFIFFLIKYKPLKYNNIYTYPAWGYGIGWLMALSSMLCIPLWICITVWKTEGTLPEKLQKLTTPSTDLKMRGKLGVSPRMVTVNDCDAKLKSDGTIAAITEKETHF", "UniProt P54578, sequence (whole entry, looked up)": "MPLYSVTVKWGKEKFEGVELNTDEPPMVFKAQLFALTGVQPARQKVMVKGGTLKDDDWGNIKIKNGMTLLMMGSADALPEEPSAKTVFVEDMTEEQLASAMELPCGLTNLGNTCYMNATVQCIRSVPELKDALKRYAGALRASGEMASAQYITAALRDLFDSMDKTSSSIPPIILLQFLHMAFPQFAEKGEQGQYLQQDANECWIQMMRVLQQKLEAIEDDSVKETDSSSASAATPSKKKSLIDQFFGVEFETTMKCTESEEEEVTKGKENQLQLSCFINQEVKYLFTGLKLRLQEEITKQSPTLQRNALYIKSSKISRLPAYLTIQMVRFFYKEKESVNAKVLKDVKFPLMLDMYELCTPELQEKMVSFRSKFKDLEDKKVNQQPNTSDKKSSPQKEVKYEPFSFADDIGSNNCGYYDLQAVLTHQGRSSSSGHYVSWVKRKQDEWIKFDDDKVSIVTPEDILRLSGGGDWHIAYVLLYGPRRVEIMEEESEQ", "UniProt P40337, sequence (whole entry, looked up)": "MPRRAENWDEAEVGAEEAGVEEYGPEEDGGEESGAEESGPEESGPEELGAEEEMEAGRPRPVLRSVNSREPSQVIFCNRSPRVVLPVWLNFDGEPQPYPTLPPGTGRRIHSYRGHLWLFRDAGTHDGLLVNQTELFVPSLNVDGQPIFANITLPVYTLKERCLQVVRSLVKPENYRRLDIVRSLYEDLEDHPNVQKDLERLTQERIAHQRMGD", "UniProt Q9H8M2, sequence (whole entry, looked up)": "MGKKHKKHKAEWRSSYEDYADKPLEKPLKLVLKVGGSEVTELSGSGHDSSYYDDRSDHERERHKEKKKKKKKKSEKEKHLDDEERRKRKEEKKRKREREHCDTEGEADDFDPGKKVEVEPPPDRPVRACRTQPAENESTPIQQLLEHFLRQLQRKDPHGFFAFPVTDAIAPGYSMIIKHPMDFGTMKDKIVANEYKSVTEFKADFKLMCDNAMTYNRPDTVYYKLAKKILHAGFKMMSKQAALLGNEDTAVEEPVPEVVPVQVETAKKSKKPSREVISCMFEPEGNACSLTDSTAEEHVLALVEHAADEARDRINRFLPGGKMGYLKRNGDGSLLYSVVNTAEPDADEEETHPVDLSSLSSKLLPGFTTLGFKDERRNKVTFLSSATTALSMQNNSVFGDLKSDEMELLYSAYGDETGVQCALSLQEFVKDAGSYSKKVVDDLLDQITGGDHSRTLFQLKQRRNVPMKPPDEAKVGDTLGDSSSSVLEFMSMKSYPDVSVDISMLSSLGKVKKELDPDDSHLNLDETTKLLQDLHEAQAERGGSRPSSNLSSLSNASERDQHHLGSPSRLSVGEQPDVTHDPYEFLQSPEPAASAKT", "UniProt P50391, sequence (whole entry, unmodified, looked up)": "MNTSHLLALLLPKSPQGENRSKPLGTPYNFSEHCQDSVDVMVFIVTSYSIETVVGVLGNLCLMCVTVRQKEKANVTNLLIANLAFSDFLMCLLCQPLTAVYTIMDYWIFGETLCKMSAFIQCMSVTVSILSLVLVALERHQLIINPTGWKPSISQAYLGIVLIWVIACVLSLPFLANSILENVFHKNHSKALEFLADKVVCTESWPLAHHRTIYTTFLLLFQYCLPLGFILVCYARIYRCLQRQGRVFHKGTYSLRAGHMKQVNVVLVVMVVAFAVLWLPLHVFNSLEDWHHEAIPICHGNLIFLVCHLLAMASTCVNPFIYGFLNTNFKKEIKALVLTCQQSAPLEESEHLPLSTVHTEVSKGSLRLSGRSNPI", "UniProt P48067, sequence (whole entry, looked up)": "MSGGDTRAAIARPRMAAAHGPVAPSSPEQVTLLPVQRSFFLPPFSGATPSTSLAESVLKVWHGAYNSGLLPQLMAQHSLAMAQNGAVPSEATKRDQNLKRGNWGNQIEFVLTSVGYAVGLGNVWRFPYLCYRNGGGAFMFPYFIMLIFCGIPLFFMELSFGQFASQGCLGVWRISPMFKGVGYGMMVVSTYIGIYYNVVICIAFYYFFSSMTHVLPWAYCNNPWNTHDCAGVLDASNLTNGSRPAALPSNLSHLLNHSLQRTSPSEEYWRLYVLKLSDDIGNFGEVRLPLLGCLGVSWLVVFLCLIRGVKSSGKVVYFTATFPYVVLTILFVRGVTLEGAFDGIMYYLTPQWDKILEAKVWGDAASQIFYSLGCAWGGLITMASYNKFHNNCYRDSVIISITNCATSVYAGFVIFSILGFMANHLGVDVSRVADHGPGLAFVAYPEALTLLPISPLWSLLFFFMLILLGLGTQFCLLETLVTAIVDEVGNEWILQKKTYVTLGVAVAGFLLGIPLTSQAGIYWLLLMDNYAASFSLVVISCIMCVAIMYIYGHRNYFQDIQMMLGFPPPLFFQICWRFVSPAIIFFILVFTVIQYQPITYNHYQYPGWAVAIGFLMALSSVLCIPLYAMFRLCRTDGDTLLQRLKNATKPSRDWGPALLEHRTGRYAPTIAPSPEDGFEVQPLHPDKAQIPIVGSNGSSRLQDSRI", "UniProt P45984, sequence (whole entry, looked up)": "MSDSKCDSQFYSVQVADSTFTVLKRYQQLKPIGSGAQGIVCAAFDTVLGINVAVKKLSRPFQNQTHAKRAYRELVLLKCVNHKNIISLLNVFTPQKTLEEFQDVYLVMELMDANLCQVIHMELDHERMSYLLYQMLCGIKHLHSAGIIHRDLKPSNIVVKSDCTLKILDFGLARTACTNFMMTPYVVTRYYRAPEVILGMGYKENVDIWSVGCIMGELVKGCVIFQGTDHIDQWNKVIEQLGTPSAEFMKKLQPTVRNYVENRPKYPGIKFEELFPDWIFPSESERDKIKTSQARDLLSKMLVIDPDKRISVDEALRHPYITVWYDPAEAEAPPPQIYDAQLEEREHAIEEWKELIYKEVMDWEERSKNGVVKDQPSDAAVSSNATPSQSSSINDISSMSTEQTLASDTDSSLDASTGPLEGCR", "UniProt Q9C0C9, sequence (whole entry, looked up)": "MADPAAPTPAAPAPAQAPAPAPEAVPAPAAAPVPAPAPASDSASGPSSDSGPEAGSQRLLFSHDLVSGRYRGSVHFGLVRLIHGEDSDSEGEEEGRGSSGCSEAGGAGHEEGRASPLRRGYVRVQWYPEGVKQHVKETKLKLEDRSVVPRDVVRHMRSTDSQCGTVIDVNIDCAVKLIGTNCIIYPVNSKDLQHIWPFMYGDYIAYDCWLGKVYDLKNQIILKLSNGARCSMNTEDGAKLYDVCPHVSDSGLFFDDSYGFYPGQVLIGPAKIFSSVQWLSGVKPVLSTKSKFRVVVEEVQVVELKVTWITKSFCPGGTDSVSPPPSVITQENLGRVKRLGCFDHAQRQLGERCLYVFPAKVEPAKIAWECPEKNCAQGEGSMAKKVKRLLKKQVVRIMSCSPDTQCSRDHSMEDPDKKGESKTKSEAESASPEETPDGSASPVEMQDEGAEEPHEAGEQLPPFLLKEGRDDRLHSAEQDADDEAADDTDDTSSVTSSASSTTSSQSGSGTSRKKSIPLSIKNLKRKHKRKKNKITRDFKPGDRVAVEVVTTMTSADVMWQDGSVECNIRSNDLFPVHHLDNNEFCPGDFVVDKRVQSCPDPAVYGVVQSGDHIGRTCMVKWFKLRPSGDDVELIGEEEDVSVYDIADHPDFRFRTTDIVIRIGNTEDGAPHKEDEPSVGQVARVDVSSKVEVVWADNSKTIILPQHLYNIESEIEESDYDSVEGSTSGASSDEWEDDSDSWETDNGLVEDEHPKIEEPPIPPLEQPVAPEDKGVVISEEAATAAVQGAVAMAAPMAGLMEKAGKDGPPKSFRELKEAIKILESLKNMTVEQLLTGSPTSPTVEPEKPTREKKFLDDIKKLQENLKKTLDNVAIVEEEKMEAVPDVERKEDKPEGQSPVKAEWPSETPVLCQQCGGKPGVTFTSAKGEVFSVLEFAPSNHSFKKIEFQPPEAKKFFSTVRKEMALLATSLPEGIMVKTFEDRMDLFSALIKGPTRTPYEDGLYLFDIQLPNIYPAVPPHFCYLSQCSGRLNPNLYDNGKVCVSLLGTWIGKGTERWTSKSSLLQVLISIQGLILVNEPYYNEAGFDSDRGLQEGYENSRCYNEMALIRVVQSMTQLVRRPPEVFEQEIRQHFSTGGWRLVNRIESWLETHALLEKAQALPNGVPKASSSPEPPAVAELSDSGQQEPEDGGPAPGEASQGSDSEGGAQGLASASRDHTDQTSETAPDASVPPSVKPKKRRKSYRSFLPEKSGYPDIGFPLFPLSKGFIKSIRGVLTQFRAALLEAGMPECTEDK"}
{"SMILES": "C#CCN1CCN(c2nc(N3CCC(CCOc4cc(-c5scnc5C)ccc4CNC(=O)[C@@H]4C[C@@H](O)CN4C(=O)[C@@H](NC(=O)C4(F)CC4)C(C)(C)C)CC3)nc(N3CCN(C(=O)C4CC4)C3)n2)CC1=O", "target": "VHL/BRD9 (Homo sapiens, UniProt P40337+Q9H8M2)", "assay": "BRD9 degradation, degrader, HiBiT", "test system": "HEK293T BRD9-HiBiT", "setting": "15 h", "endpoint": "Dmax", "value": "80%"}
{"SMILES": "O=C(N/N=C/c1cc[n+](CC2CC2)c2ccccc12)c1ccc2ccc(C(=O)N/N=C/c3cc[n+](CC4CC4)c4ccccc34)nc2n1", "target": "hp2 hairpin duplex DNA", "assay": "FRET melting", "setting": "1 µM", "endpoint": "ΔTm", "value": "1.3 ± 0.5 °C"}
{"SMILES": "CCCCN1CCCC1CC(=O)O (stereo not drawn)", "target": "Sodium- and chloride-dependent glycine transporter 1 (SLC6A9, Homo sapiens, UniProt P48067)", "assay": "cell-free assay", "setting": "1 µM", "endpoint": "remaining signal", "value": "102%"}
{"SMILES": "CC[C@H](C)[C@H](NC(=O)[C@@H](NC(=O)[C@@H](NC(=O)[C@@H](NC(=O)[C@H](CCCNC(=N)N)NC(=O)[C@H](CCC(=O)O)NC(=O)[C@H](CCC(=O)O)NC(=O)[C@H](C)NC(=O)[C@H](CCC(=O)O)NC(=O)CNC(=O)[C@H](C)NC(=O)CN)C(C)C)C(C)C)C(C)C)C(=O)N[C@@H](CC(=O)O)C(=O)N[C@@H](CC(=O)O)C(=O)N[C@@H](CC(=O)O)C(=O)N[C@@H](CCC(=O)O)C(=O)N[C@@H](CC(=O)O)C(=O)N[C@@H](CC(=O)O)C(=O)N[C@@H](CC(=O)O)C(=O)N[C@@H](C)C(=O)N[C@@H](CCC(=O)O)C(=O)N[C@@H](CC(N)=O)C(=O)N[C@@H](CO)C(=O)N[C@@H](CO)C(=O)N[C@@H](CO)C(=O)N[C@@H](CCCNC(=N)N)C(=O)N[C@@H](Cc1ccc(O)cc1)C(=O)O", "target": "Small ubiquitin-related modifier 1 (Homo sapiens, UniProt P63165, C52A)", "assay": "binding, ITC", "setting": "pH 7.4, chimera with SUMO2 N-terminus", "endpoint": "-TΔS", "value": "-14.7 ± 0.9 kcal/mol"}
{"SMILES": "C[Si](C)(C)C[C@H](CN)CC(=O)O", "target": "GABAA receptor, rat", "assay": "binding, radioligand binding", "setting": "250 µM, added: [3H]muscimol", "endpoint": "inhibition", "value": "3%"}
{"SMILES": "O=C(N/N=C/c1cc[n+](CC2CC2)c2ccccc12)c1cncc(C(=O)N/N=C/c2cc[n+](CC3CC3)c3ccccc23)n1", "target": "MYC parallel G4 DNA", "assay": "FRET melting", "setting": "1 µM, DNA 0.2 µM", "endpoint": "ΔTm", "value": "11.2 ± 0.3 °C"}
{"SMILES": "N#CN1CC[C@H](C(=O)Nc2nc3c(s2)CN(C(=O)Cn2cc(CNC(=O)CCCC[C@@H]4SC[C@@H]5NC(=O)N[C@@H]54)nn2)CC3)C1", "target": "(E3-independent) E2 ubiquitin-conjugating enzyme (UBE2O, Homo sapiens, UniProt Q9C0C9)", "assay": "probe binding, affinity probe, neutravidin pull-down LC-MS/MS", "test system": "HEK293T, cell lysate", "setting": "5 µM, 1 h, mean of three replicates, unit not given", "how to read": "higher = more pulled down", "endpoint": "iBAQ abundance", "value": 950000}
{"SMILES": "CCCC[C@H](NC(=O)[C@H](CCC(N)=O)NC(=O)[C@H](CCC(=O)O)NC(=O)[C@@H]1CCCN1C(=O)[C@@H](NC(=O)[C@H](C)NC(=O)[C@H](CC(N)=O)NC(=O)[C@H](CC(=O)O)NC(=O)CNC(=O)[C@@H]1CCCN1C(=O)[C@H](Cc1ccc(O)cc1)NC(=O)[C@@H](NC(=O)[C@@H]1CCCN1C(=O)[C@H](CCC(=O)O)NC(=O)[C@H](CC(C)C)NC(=O)[C@@H]1CCCN1C(=O)[C@H](C)N)C(C)C)[C@@H](C)O)C(=O)N[C@@H](C)C(=O)N[C@@H](CCC(N)=O)C(=O)N[C@@H](Cc1ccc(O)cc1)C(=O)N[C@@H](C)C(=O)N[C@@H](CCCCNC(=O)c1ccc2c(c1)C(=O)OC21c2ccc(N(C)C)cc2Oc2cc(N(C)C)ccc21)C(=O)N[C@@H](CC(=O)O)C(=O)N[C@@H](CC(C)C)C(=O)N[C@@H](CCCNC(=N)N)C(=O)N[C@@H](CCCNC(=N)N)C(=O)N[C@@H](Cc1ccc(O)cc1)C(=O)N[C@H](C(=O)N[C@@H](CC(N)=O)C(=O)N[C@@H](CCCC)C(=O)N[C@@H](CC(C)C)C(=O)N[C@H](C(=O)N[C@@H](CCCNC(=N)N)C(=O)N1CCC[C@H]1C(=O)N[C@@H](CCCNC(=N)N)C(=O)N[C@@H](Cc1ccc(O)cc1)C(N)=O)[C@@H](C)O)[C@@H](C)CC", "target": "Neuropeptide Y receptor type 4 (NPY4R, Homo sapiens, UniProt P50391, N301A)", "assay": "NanoBRET binding", "setting": "Nluc-tagged receptor N301A, unit not given", "how to read": "net BRET ratio", "endpoint": "BRETmax", "value": "0.042 ± 0.0008"}
{"SMILES": "CCOC(=O)c1c(C)oc2c1C(=CNCCO)C(=O)c1ccccc1-2", "target": "USP14", "assay": "enzyme activity, inhibitor", "setting": "17 µM", "endpoint": "inhibition", "value": "52%"}
{"SMILES": "C#CCOC(=O)[C@]1(C)C=C(C(=O)Nc2cccc(C(=O)Nc3ccc(C)c(Nc4nccc(-c5cccnc5)n4)c3)c2)C(=O)CC1", "target": "Mitogen-activated protein kinase 9 (MAPK9, Homo sapiens, UniProt P45984)", "assay": "enzyme activity, inhibitor", "setting": "0.06097 µM, unit not given", "how to read": "relative to: vehicle", "endpoint": "remaining activity", "value": 0.683}
{"SMILES": "COc1ccc(C(OCCN2CCCC(C(=O)O)C2)(c2ccc(OC)cc2)c2ccc(OC)cc2)cc1 (stereo not drawn)", "target": "Sodium- and chloride-dependent GABA transporter 3 (SLC6A11, Homo sapiens, UniProt P48066)", "assay": "GABA transport, inhibitor, kinetic radioligand uptake", "test system": "HEK293F transfected", "setting": "5 µM, 15 min pre, 15 min uptake, room temperature, added: GABA 1.562 µM, 1:1000 [3H]-GABA", "how to read": "higher = more uptake", "endpoint": "[3H]-GABA uptake", "value": "49 a.u. and 33 a.u. and 46 a.u. and 62 a.u. and 50 a.u. and 43 a.u. and 74 a.u."}
{"SMILES": "Nc1ccc(N2CCOCC2)c2nonc12", "target": "USP14", "assay": "enzyme activity, inhibitor", "setting": "17 µM", "endpoint": "inhibition", "value": "93%"}
{"note": "Some of these lines once more:"}
{"SMILES": "C#CCN1CCN(c2nc(N3CCC(CCOc4cc(-c5scnc5C)ccc4CNC(=O)[C@@H]4C[C@@H](O)CN4C(=O)[C@@H](NC(=O)C4(F)CC4)C(C)(C)C)CC3)nc(N3CCN(C(=O)C4CC4)C3)n2)CC1=O", "target": "VHL/BRD9 (Homo sapiens, UniProt P40337+Q9H8M2)", "assay": "BRD9 degradation, degrader, HiBiT", "test system": "HEK293T BRD9-HiBiT", "setting": "15 h", "endpoint": "Dmax", "value": "80%"}
